Experimental data from different studies.
Each line is one published result; not all experiments were run side by side. “And” joins repeats or separate records; there may be more than shown. ± marks the error that the study gave. ≈ marks a conversion by molar mass, not a printed value.

SMILES | target or system | assay | test system | conditions | how to read | endpoint | value
COc1cc2c(NC3CCN(C4CCCCC4)CC3)nc(N3CCCN(C(C)C)CC3)nc2cc1OCCCN1CCCCC1 | OCI-Ly1 |  |  | 1 µM, 120 h |  | viability | 145%
N=C(N)c1ccc(OCc2cccc(COc3ccc(C(=N)N)cc3)c2)cc1 | Escherichia coli |  | BW25113 | concentration not given, lowest-FICI combination, added: rifampicin |  | MIC in combination | 50 µg/mL
Cc1cc(OC(C)C)ccc1C(=O)C(C)(C)NC(=O)c1sccc1C | Botrytis cinerea | mycelial growth | PSA medium | 20 °C |  | EC50 | 0.1 µg/mL
CCc1nn(C)c2nc(-c3ccc(C(=O)O)cc3)nc(NCc3ccc(F)cc3)c12 | Cryptosporidium parvum |  | HCT-8 | 3 x EC90, 48 h | reference: DMSO control | parasite number | 23.6% and 21.8% and 22.7%
COC(=O)[C@H](Cc1c[nH]c2ccccc12)NCc1cc2ccccc2nc1SC | Pseudomonas aeruginosa |  |  | 128 µg/mL, added: pentamidine 100 µM | reference: control | growth | 58.6%
O=C(/C=C/N1C[C@H]2C[C@@H]1CN2c1ccccn1)c1ccccc1O | OCI-Ly1 |  |  | 0.1 µM, 120 h |  | viability | 9.9%
C(=N\Nc1ccccc1)/c1ccc(-c2ccc(/C=N/Nc3ccccc3)cc2)cc1 | Pichia kudriavzevii |  | ATCC 6258 |  | reference: CC50 over MIC | selectivity ratio | < 0.6
CC(=Nc1ccc(N=Cc2ccc(C=Nc3ccc(N=C(C)N(C)C)cc3)o2)cc1)N(C)C | Necator americanus |  | infected hamsters | oral, 50 mg/kg single | reference: untreated | worm burden reduction | 91.7 ± 5%
COc1c(N2C[C@@H]3CCCN[C@@H]3C2)c(F)cc2c(=O)c(C(=O)O)cn(C3CC3)c12 | Staphylococcus epidermidis | broth microdilution | methicillin-resistant isolates |  |  | MBC | 8 µg/mL (≈ 19.9 µM)
CC(C)n1ncc2c(C(=O)NCC3(C)CNC3)cc(C3CC3)nc21 | Enterovirus D68 | cytopathic effect | RD, US/KY/14-18953 | 500 nM |  | cell protection | 96.8% and 93.7% and 95.2%
N=C(N)c1ccc(OCc2ccc(Br)cc2COc2ccc(C(=N)N)cc2)cc1 | Escherichia coli | checkerboard | mcr-2 polymyxin-resistant | concentration not given, 20 h, added: rifampicin |  | MIC of compound in combination | 6.25 µg/mL
CC(=Nc1ccc(N=Cc2c[nH]cn2)cc1)N(C)C | Necator americanus |  | infected hamsters | oral, 25 mg/kg single dose, 49 days post infection |  | worm burden reduction | 90.5 ± 5.9%
Cc1ccc(CCC(=O)Nc2nnc(S(N)(=O)=O)s2)cc1 | Bifidobacterium longum |  | HM-847 |  |  | MIC | > 784 µM
Nc1ccn(C[C@@H](CO)OCP(=O)(O)O)c(=O)n1 | Human betaherpesvirus 5 | viral replication, virus yield reduction | HFF, AD169 |  |  | EC90 | 370 nM
CC(=Nc1ccc(N=Cc2ccc3[nH]ccc3c2)cc1)N(C)C | Necator americanus |  | infected hamsters | oral, 50 mg/kg single | reference: untreated | worm burden reduction | 100%
CC1(F)CN(C(=O)Cn2c(=O)c(C(=O)NCc3ccc(Cl)cc3)cc3nc(N4CCOC4=O)cnc32)C1 | human cytomegalovirus | viral replication, GFP reporter | MRC-5, AD169-GFP |  |  | EC50 | 290 nM
N=C(N)c1ccc(OCCCCCOc2ccc(C(=N)N)cc2)cc1 | Escherichia coli | checkerboard | BW25113 | synergy at FICI ≤0.5, unit not given, added: novobiocin | lower = stronger synergy | FICI | ≤ 0.281
CO[C@H]1/C=C/O[C@@]2(C)Oc3c(C)c(O)c4c(c3C2=O)C2=NC3(CCN(CC(C)C)CC3)NC2=C(NC(=O)/C(C)=C\C=C\[C@H](C)[C@H](O)[C@@H](C)[C@@H](O)[C@@H](C)[C@H](OC(C)=O)[C@@H]1C)C4=O | Mycobacteroides abscessus | bacterial growth | subsp. abscessus Bamboo |  |  | IC50 | 2740 nM
COC(=O)[C@H](Cc1c[nH]c2ccccc12)NCc1cc2ccccc2nc1OC | Pseudomonas aeruginosa |  |  | 4 µg/mL, added: pentamidine 100 µM | reference: control | growth | 57.5%
CN[C@H](CC(C)C)C(=O)N[C@H]1C(=O)N[C@@H](CC(N)=O)C(=O)N[C@H]2C(=O)N[C@H]3C(=O)N[C@H](C(=O)N[C@H](C(=O)O)c4cc(O)cc(O)c4-c4cc3ccc4O)[C@H](O)c3ccc(c(Cl)c3)Oc3cc2cc(c3O[C@@H]2O[C@H](CO)[C@@H](O)[C@H](O)[C@H]2O[C@H]2C[C@](C)(N)[C@H](O)[C@H](C)O2)Oc2ccc(cc2Cl)[C@H]1O | Streptococcus pneumoniae |  | -4, penicillin-resistant, mouse systemic infection | intravenous | survival | ED50 | 21.1 mg/kg
NCC[C@H](O)C(=O)N[C@@H]1C[C@H](N)[C@@H](O[C@H]2O[C@H](CN)[C@@H](O)[C@H](O)[C@H]2O)[C@H](O)[C@H]1O[C@H]1O[C@H](CO)[C@@H](O)[C@H](N)[C@H]1O | Mycobacterium avium | resazurin microtitre | 104 | 4 days, 37 °C |  | MIC50 | 3.1 µM

SMILES | target or system | assay | test system | conditions | how to read | endpoint | value
Cc1cc(Nc2ccc(S(F)(F)(F)(F)F)cc2)n2nc(C(C)(F)F)nc2n1 | Plasmodium falciparum | microscopy | human malaria patients | 250 mg, mean |  | lag phase (Tlag) | 12.6 h
CC(=Nc1ccc(N=Cc2cccnc2)cc1)N(C)C | Necator americanus |  | infected hamsters | oral, 50 mg/kg single | reference: untreated | worm burden reduction | 93.3 ± 6.7%
Cc1ccc(NC(=O)N2Cc3[nH]cnc3C[C@H]2c2nc(-c3ccc4c(c3)OCO4)no2)cc1 | Caenorhabditis elegans |  | N2 | 3.125 µM |  | mean lifespan | 21.2 days
COC(=O)[C@@H](NCc1cc2ccccc2nc1OCc1ccccc1)C(C)C | Pseudomonas aeruginosa |  |  | 32 µg/mL, added: pentamidine 100 µM | reference: control | growth | 95.3%
Nc1nc(-c2ccccc2)nc2[nH]nc(Nc3ccc(C(F)(F)F)cc3)c12 | coxsackievirus B3 |  | 31-1-93, NMRI mice, CVB3 chronic myocarditis | oral, 100 mg/kg twice daily, day 8, dosed days 1 to 7, score scale 0 to 7 | direction not given | clinical score | 0.22
COC(=O)[C@@H](CCSC)NCc1cc2ccccc2nc1SC | Pseudomonas aeruginosa |  |  | 4 µg/mL, without pentamidine | reference: control | growth | 95.7%
CC(=Nc1ccc(N=Cc2ccc3[nH]cnc3c2)cc1)N(C)C | Necator americanus |  | infected hamsters | oral, 12.5 mg/kg single dose, 49 days post infection |  | worm burden reduction | > 70% and 70.3%
CN[C@H](CC(C)C)C(=O)N[C@H]1C(=O)N[C@@H](CC(N)=O)C(=O)N[C@H]2C(=O)N[C@H]3C(=O)N[C@H](C(=O)N[C@H](C(=O)O)c4cc(O)cc(O)c4-c4cc3ccc4O)[C@H](O)c3ccc(c(Cl)c3)Oc3cc2cc(c3O[C@@H]2O[C@H](CO)[C@@H](O)[C@H](O)[C@H]2O[C@H]2C[C@](C)(N)[C@H](O)[C@H](C)O2)Oc2ccc(cc2Cl)[C@H]1O | Staphylococcus epidermidis |  | 9397, female ICR mice, peritonitis, kidney | dose not given |  | bacterial load | 5.85 log CFU and 3.52 log CFU and 5.33 log CFU and 4.83 log CFU and 3.82 log CFU
O=S(=O)(c1ccc(Cl)cc1)c1nc(-c2ccccc2)oc1S(=O)(=O)c1ccc(Cl)cc1 | human cytomegalovirus | viral replication | HFF, AD169 |  |  | EC50 | 140 nM
CC1(F)CN(C(=O)Cn2c(=O)c(C(=O)NCc3ccc(Cl)cc3)cc3nc(N4CCNC4=O)cnc32)C1 | human cytomegalovirus | viral replication, GFP reporter | MRC-5, AD169-GFP |  |  | EC50 | 218 nM
CC(=O)NC[C@H]1CN(c2ccc(N3CCOCC3)c(F)c2)C(=O)O1 | Bifidobacterium longum |  | HM-845 |  |  | MIC | < 2.96 µM
CC(=Nc1ccc(N=Cc2ccc[nH]2)cc1)N(C)C | Necator americanus |  | infected hamsters | oral, 25 mg/kg single dose, 49 days post infection |  | worm burden reduction | 100%
COc1cnc2c(cc(C(=O)NCc3ccc(Cl)cc3)c(=O)n2CC(=O)N2CC(C)(F)C2)n1 | human cytomegalovirus | viral replication, GFP reporter | MRC-5, AD169-GFP |  |  | EC50 | 377 nM
COC(=O)[C@H](Cc1ccc(O)cc1)NCc1cc2ccccc2nc1SC | Pseudomonas aeruginosa |  |  | 8 µg/mL, without pentamidine | reference: control | growth | 97.2%
CN(C)C(=O)CN1CCN(c2cnc3c(cc(C(=O)NCc4ccc(Cl)cc4)c(=O)n3CC(=O)N3CC(C)(F)C3)n2)C1=O | human cytomegalovirus | viral replication, GFP reporter | MRC-5, AD169-GFP |  |  | EC50 | 831 nM
CCOC(=O)c1c(C)nc(NCCCCNc2ccnc3cc(Cl)ccc23)nc1C | human cytomegalovirus | viral replication | HEL, AD-169 |  |  | EC50 | > 4000 nM
CC(=O)NC[C@H]1CN(c2ccc(N3CCOCC3)c(F)c2)C(=O)O1 | Streptococcus pneumoniae |  | penicillin-resistant, 10 isolates | pH 8.5 |  | MIC50 | 1 µg/mL
Cc1nc(NCCCCNc2ccnc3cc(Cl)ccc23)nc(-c2ccccc2[N+](=O)[O-])c1C(=O)OC(C)C | human cytomegalovirus | viral replication | HEL, AD-169 |  |  | EC50 | > 4000 nM
CC(=Nc1ccc(N=Cc2nc3ccccc3[nH]2)cc1)N(C)C | Necator americanus |  | infected hamsters | oral, 50 mg/kg single | reference: untreated | worm burden reduction | 58.8 ± 21.3%
CCOC(=O)c1c(C)nc(NCCNc2ccnc3cc(Cl)ccc23)nc1-c1ccccc1 | human cytomegalovirus | viral replication | HEL, AD-169 |  |  | EC50 | > 4000 nM
FC(F)(F)c1cccc(N2CCN(Cn3nc(COc4ccccc4)n(-c4ccccc4)c3=S)CC2)c1 | Lytechinus pictus | fluo-3 | egg homogenate | 6 to 125 µM, added: NAADP 30 to 50 nM |  | NAADP Ca2+ release antagonism | toxic

Excerpt of the above:
SMILES | target or system | assay | test system | conditions | how to read | endpoint | value
O=C(/C=C/N1C[C@H]2C[C@@H]1CN2c1ccccn1)c1ccccc1O | OCI-Ly1 |  |  | 0.1 µM, 120 h |  | viability | 9.9%
C(=N\Nc1ccccc1)/c1ccc(-c2ccc(/C=N/Nc3ccccc3)cc2)cc1 | Pichia kudriavzevii |  | ATCC 6258 |  | reference: CC50 over MIC | selectivity ratio | < 0.6
CC(=Nc1ccc(N=Cc2ccc(C=Nc3ccc(N=C(C)N(C)C)cc3)o2)cc1)N(C)C | Necator americanus |  | infected hamsters | oral, 50 mg/kg single | reference: untreated | worm burden reduction | 91.7 ± 5%
COc1c(N2C[C@@H]3CCCN[C@@H]3C2)c(F)cc2c(=O)c(C(=O)O)cn(C3CC3)c12 | Staphylococcus epidermidis | broth microdilution | methicillin-resistant isolates |  |  | MBC | 8 µg/mL (≈ 19.9 µM)
CC(C)n1ncc2c(C(=O)NCC3(C)CNC3)cc(C3CC3)nc21 | Enterovirus D68 | cytopathic effect | RD, US/KY/14-18953 | 500 nM |  | cell protection | 96.8% and 93.7% and 95.2%
